Experimental data from different studies.
Each numbered part is a random draw from the data of one study; scales do not carry over between parts.

Block 1
Target: Eukaryotic initiation factor 4A-I (EIF4A1, Homo sapiens, UniProt P60842, residues 1-406, full length assumed)
Sequence of UniProt P60842 (whole entry, looked up): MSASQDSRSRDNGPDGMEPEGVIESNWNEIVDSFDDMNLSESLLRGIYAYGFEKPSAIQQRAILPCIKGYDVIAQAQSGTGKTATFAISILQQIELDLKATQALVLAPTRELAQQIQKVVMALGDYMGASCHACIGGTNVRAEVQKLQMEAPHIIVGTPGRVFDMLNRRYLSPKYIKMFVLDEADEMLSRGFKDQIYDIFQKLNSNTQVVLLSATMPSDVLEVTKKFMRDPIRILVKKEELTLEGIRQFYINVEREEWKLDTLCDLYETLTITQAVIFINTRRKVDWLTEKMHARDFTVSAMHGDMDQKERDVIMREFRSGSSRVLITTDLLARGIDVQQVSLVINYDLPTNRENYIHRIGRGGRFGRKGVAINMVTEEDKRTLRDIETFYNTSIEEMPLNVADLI
Technique: RNA Bind-n-Seq
Molecule type: RNA
Sample: in vitro
Concentration: 90 pmol
Notes: 4-mer, random 30-nt RNA, single round
Together with: 3 µM iPr-DMDA-PatA, 2 mM ADP, 2 mM phosphate
Baseline: input library
Reading: higher = stronger binding
With `UGUG` the 4-mer enrichment was 0.832 fold.
For `AACC`, the 4-mer enrichment was 1.19 fold.
For `AUGG`, the 4-mer enrichment was 0.897 fold.
For `UACC`, the 4-mer enrichment was 1.08 fold.
With `UGCA` the 4-mer enrichment was 0.893 fold.
`AAUC` gave a 4-mer enrichment of 1.29 fold.
With `CAUC` the 4-mer enrichment was 0.979 fold.
The 4-mer enrichment of `CAGA` is reported as 1.17 fold.

Block 2
Target: Sal-like protein 4, full length isoform A (SALL4, Homo sapiens, UniProt Q9UJQ4, residues 1-1053)
Sequence of UniProt Q9UJQ4 (whole entry, looked up): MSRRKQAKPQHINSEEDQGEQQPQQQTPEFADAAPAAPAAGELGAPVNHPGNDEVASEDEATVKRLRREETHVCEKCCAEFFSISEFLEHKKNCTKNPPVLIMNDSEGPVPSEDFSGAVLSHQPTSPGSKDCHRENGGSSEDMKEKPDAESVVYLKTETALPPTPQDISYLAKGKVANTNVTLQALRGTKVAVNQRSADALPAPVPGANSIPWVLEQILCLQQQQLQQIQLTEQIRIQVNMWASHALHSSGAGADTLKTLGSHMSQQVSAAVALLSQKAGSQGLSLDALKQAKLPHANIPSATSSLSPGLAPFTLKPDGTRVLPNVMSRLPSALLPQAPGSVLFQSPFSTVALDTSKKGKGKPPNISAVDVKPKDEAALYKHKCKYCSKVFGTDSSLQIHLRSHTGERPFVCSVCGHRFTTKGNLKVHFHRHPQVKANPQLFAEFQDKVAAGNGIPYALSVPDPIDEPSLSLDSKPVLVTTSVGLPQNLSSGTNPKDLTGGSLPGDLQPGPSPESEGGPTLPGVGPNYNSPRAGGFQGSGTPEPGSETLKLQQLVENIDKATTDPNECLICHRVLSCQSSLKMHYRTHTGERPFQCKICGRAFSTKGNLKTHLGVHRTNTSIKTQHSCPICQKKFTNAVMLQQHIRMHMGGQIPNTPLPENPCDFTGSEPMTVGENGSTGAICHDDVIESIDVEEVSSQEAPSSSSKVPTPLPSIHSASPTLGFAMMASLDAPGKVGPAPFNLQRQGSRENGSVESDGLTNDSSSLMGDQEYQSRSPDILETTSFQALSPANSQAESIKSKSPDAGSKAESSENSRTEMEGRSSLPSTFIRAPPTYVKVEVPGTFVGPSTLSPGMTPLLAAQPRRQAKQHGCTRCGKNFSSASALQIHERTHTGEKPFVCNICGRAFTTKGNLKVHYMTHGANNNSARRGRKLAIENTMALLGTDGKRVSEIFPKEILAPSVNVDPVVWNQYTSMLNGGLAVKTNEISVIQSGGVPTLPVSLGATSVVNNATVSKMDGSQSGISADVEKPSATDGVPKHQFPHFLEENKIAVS
Technique: universal PBM
Molecule type: double-stranded DNA, one strand shown
Sample: in vitro
Concentration: 600 nM
Notes: 8-mer, flanks averaged, mean of replicates
Reading: higher = stronger binding
`CGGTGTAG` has an E-score of -0.133.
`TCCCATAA` has an E-score of 0.24.
For `ACCCGCAT`, the E-score was -0.157.
`GCAACGGA` has an E-score of -0.13.
For `ACTACCAA`, the E-score was 0.156.
`ACACGTAG` gave an E-score of -0.0955.
With `CTATTACA` the E-score was 0.251.
`CGCATGTC` gave an E-score of -0.00191.

Block 3
Target: Phosphate system positive regulatory protein PHO4, full length, GST-tagged (PHO4, Saccharomyces cerevisiae, UniProt P07270, residues 1-312)
Technique: competition protein-binding microarray
Molecule type: double-stranded DNA, one strand shown
Sample: in vitro
Concentration: 2 µM
Notes: whole 60-bp probe, lowest competitor level
Together with: Cbf1 competitor, 0.05 µM
Reading: higher = stronger binding
Target sequence (chain): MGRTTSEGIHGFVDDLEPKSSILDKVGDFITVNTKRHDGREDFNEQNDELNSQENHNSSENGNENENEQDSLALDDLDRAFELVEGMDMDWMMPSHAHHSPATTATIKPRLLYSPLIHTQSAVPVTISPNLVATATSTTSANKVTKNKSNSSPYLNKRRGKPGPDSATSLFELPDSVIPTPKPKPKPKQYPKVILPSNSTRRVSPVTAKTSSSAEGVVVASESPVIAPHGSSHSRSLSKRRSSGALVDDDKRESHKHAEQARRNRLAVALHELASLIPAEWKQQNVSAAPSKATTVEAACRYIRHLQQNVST
The fluorescence intensity of `AAAGCGGTAATTTTTCACGTGCGCTCACATATCTATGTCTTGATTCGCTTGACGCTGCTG` is reported as 13400 a.u.
With `AAAAAAGGGGGCAGCAACGTGCTTTACATACAAACCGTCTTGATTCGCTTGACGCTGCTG` the fluorescence intensity was 14300 a.u.
`CCGATTGGTTACAGTTCCGTGATGGGCAAGATTACTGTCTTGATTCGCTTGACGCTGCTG` has a fluorescence intensity of 3910 a.u.
`TCAAGAAAAATTCATCACCTGACTGCAAAATAAAGCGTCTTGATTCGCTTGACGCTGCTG` has a fluorescence intensity of 3770 a.u.
`AACCTGGAAGTGGGCCACATGTTGTAAAAGGAAGCTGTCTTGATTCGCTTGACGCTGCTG` has a fluorescence intensity of 10100 a.u.
`ATCACCCCGGTCCCGCACGTGTTCCTGTGCTCCCCTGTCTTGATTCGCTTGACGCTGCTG` has a fluorescence intensity of 20700 a.u.
With `CTGGTACTGAAGAATCACATGTGTGGAACGGTATAGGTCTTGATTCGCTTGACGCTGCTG` the fluorescence intensity was 11300 a.u.
`AAATTACTAAGTTGTTGAGTGGGTGACGCCGTATGAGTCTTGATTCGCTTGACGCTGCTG` has a fluorescence intensity of 3760 a.u.

Single results of other studies
`Cc1noc([C@H]2C[C@@H](c3ccc(C(F)(F)F)cc3)CN(C(=O)N3CCS(=O)(=O)C3)C2)n1` has a remaining binding of 99% (Mitogen-activated protein kinase 9 (MAPK9, Homo sapiens, UniProt P45984); cell-free assay, competition with immobilised ligand; 1 µM).

Excerpt of the above (block 2):
For `ACTACCAA`, the E-score was 0.156.
`ACACGTAG` gave an E-score of -0.0955.
For `ACCCGCAT`, the E-score was -0.157.
`CGGTGTAG` has an E-score of -0.133.
